Assay results of several laboratories.
Compare with care: the assays were run in different laboratories.
Target: Histamine H2 receptor (HRH2, Homo sapiens, UniProt P25021)
UniProt P25021, sequence (whole entry, looked up): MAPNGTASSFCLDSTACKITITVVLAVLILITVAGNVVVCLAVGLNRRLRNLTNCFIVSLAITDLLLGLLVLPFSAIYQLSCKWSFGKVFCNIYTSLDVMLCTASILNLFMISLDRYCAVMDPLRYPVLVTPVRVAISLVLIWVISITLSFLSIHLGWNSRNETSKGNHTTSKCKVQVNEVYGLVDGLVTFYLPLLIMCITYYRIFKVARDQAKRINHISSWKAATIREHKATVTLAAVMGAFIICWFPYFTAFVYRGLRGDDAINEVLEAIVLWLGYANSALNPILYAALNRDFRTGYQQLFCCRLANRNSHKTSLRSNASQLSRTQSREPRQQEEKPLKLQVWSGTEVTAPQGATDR

COc1ccc(C(=O)Nc2c(-c3cccs3)nc3ccccn23)cc1 — inhibition (ligand displacement, radioligand; 10 µM): < 50%
C[Si](C)(C)C[C@@H](CN)CC(=O)O — inhibition (cell-free assay, inhibitor; 75 µM): -9%
CO[C@@H](C)c1c(NC(=O)Nc2cnc(-n3nccn3)c(C(F)(F)F)c2)cnc2sc(C)nc12 — inhibition (ligand displacement, radioligand; 10 µM): 14.7%
CNC(=O)C[C@H](Cc1ccc(C#N)cc1)NC(=O)c1cc(-c2ccc(CN[C@H](C)c3ccc(C)cc3)o2)ccc1Cl — inhibition (agonist response, antagonist; human cells; 10 µM, H2 antagonist): -24%
C[Si]1(C[C@H](CN)CC(=O)O)CCCC1 — inhibition (cell-free assay, inhibitor; 70 µM): -3%
COc1ccc(C#CC2=C[C@H]3C[C@@]4(OC(=O)C=C24)[C@H]2CC[C@H](C(OC)OC)N32)cc1 — inhibition (ligand displacement, radioligand; 10 µM): 31%
Cc1[nH]nc2c1N=C(c1ccccc1Cl)c1cnc(N3CCOCC3)cc1N2 — inhibition (cell-free assay; 10 µM): 0%
Cn1ccc2cc(-n3c(=O)[nH]c4sc5c(c4c3=O)CCCC5)ccc21 — inhibition (cell-free assay, radioligand; 10 µM): -15%
COCC(=O)N1CCc2cc(-c3csc(NC(=O)c4cc(OC)cc(OC)c4)n3)ccc21 — inhibition (ligand displacement, radioligand; 10 µM): 8%
CCC(=O)N(C)c1ccc(Cl)c(Cl)c1 — inhibition (ligand displacement, radioligand; 10 µM): < 10%
O=C1c2sc(-c3ccc(N4CCC(F)C4)nc3F)nc2CCN1c1cccnc1 (stereo not drawn) — inhibition (ligand displacement, radioligand; 1 µM): -2%
COc1ccc(S(=O)(=O)N2CCc3ccccc3C2)cc1N1CCN(C(=O)c2ccc(F)cc2C(F)(F)F)CC1 — inhibition (cell-free assay; 1 µM): 17.5%
COc1ncc2nc(C)n(Cc3ncc(S(N)(=O)=O)cc3F)c2c1-c1ccccc1 — activation (agonist, cell-based; 10 µM): 2.34%
Cc1cccc(O[C@H]2CCC[C@@H](C(C)CNCc3ccncc3)C2)c1 (relative stereo) — inhibition (ligand displacement; 10 µM): 58%
CC(C)Cn1c(SCC(=O)N2CCc3ccccc3C2)nc2cc(Cl)ccc2c1=O — inhibition (ligand displacement, radioligand; 10 µM): 20%

Repeated from above:
C[Si]1(C[C@H](CN)CC(=O)O)CCCC1 — inhibition (cell-free assay, inhibitor; 70 µM): -3%
CCC(=O)N(C)c1ccc(Cl)c(Cl)c1 — inhibition (ligand displacement, radioligand; 10 µM): < 10%
